Published values pooled from the literature.
Parts stem from different laboratories: compare values within a part only. “And” joins repeats or separate records; there may be more than shown.
UniProt Q8NFD2, sequence (whole entry, looked up): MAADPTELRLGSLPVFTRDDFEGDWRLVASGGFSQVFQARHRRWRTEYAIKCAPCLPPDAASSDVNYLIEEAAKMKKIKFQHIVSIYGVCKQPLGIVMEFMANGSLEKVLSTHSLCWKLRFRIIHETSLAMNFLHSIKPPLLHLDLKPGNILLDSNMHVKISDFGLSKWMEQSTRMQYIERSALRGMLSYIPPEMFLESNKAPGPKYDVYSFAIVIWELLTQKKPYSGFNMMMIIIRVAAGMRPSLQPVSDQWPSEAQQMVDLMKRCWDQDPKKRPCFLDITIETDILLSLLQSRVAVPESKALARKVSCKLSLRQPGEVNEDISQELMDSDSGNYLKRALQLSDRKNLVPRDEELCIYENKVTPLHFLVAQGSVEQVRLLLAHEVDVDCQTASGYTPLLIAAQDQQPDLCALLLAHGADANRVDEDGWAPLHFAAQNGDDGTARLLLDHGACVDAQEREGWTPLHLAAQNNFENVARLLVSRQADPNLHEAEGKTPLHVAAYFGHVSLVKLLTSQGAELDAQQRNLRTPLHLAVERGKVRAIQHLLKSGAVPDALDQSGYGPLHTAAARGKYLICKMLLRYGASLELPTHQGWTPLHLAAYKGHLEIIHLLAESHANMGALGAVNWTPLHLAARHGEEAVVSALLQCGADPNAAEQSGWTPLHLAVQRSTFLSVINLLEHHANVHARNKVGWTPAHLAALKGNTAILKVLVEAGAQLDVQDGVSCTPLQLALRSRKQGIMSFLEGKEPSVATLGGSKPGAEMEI
UniProt Q9UBF8, sequence (whole entry, looked up): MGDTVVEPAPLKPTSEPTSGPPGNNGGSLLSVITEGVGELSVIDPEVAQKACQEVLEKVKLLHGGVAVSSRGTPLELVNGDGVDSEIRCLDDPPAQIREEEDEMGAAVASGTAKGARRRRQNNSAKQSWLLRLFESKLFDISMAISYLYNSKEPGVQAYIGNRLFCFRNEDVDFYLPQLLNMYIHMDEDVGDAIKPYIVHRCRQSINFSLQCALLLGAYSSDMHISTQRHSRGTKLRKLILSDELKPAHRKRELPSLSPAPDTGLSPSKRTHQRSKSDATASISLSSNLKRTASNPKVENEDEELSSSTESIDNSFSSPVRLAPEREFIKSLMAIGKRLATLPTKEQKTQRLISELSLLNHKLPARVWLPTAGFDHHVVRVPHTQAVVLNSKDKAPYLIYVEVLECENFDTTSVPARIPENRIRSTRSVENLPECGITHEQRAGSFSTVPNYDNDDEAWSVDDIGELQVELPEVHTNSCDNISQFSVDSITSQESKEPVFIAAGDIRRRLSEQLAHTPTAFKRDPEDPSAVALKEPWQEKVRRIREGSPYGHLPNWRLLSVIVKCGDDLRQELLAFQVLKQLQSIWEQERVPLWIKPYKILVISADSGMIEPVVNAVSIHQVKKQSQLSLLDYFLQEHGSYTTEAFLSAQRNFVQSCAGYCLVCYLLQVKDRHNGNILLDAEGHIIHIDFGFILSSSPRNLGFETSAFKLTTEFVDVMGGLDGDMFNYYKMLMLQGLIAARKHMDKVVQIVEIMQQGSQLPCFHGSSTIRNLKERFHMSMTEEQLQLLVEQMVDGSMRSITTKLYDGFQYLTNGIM
UniProt Q9H4B4, sequence (whole entry, looked up): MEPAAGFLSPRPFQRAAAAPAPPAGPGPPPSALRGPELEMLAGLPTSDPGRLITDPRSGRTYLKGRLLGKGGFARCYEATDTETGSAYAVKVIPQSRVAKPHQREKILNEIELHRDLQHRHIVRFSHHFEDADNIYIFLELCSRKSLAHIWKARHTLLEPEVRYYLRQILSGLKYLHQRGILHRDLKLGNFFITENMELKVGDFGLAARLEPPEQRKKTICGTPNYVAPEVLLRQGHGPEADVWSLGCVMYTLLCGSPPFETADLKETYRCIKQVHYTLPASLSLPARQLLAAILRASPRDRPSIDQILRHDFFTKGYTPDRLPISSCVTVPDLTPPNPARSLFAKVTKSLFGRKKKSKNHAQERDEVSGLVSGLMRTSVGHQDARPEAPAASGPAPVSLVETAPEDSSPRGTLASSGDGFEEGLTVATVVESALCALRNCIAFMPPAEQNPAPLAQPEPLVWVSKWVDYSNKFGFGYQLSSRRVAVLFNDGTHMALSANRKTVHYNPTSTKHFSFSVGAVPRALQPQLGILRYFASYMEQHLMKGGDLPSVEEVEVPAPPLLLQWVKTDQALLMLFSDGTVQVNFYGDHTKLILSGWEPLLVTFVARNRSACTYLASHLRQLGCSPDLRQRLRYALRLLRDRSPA
UniProt Q99640, sequence (whole entry, looked up): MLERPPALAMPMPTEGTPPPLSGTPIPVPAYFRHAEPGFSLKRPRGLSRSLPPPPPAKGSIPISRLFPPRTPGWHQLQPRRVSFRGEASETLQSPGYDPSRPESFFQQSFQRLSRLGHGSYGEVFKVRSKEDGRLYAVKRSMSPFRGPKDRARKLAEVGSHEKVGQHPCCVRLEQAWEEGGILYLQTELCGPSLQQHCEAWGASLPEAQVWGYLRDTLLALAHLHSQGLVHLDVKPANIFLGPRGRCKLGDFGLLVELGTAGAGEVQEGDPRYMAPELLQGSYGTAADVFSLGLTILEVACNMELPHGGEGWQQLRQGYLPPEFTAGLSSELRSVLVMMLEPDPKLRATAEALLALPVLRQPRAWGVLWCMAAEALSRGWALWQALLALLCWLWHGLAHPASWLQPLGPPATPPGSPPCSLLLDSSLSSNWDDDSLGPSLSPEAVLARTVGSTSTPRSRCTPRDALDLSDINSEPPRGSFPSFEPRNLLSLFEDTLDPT
UniProt Q00535, sequence (whole entry, looked up): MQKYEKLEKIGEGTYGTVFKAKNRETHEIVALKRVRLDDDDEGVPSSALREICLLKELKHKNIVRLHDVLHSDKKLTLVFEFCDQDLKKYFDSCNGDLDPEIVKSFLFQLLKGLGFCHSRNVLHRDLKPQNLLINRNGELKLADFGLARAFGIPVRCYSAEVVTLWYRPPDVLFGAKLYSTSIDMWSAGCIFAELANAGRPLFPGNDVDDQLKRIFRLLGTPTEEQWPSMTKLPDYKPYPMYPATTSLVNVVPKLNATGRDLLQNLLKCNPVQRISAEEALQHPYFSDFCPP

Sample 1 — read-out: enzyme activity; mode: inhibitor; concentration: 10 µM; endpoint: inhibition
Target: Calcium/calmodulin-dependent protein kinase type II subunit alpha (CAMK2A, Homo sapiens, UniProt Q9UQM7)
UniProt Q9UQM7, sequence (whole entry, looked up): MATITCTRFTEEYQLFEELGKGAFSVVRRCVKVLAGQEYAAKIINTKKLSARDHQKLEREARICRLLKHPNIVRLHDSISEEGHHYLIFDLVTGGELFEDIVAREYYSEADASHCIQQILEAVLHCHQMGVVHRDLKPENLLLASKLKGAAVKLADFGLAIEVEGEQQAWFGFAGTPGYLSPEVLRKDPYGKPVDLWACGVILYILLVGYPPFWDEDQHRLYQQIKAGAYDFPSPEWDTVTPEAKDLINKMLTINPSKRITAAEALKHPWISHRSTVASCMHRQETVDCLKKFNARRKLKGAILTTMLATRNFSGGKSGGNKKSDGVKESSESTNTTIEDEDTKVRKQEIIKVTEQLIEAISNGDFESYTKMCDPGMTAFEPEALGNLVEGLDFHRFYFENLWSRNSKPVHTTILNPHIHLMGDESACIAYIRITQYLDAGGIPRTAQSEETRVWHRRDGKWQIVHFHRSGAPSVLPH
COc1cc2c(cc1O)CC[n+]1cc3c4c(ccc3cc1-2)OCO4: -11%
COc1cc2c(cc1Cc1cccc(Cl)c1F)c(=O)c(C(=O)O)cn2[C@H](CO)C(C)C: 1%
O=C1O[C@H]([C@@H](O)CO)C(O)=C1O[C@@H]1O[C@H](CO)[C@@H](O)[C@H](O)[C@H]1O: -5%
C/C=C(/C)C(=O)O[C@@H]1c2c(ccc3ccc(=O)oc23)OC(C)(C)[C@@H]1OC(C)=O: 11%
C=C1[C@H]2C[C@H]2[C@]2(C)Cc3occ(C)c3[C@H](O)[C@@H]12: -1%
CSc1ccc(C(=O)c2[nH]c(=O)[nH]c2C)cc1: 1%
COc1cc2oc(=O)ccc2cc1O[C@@H]1O[C@H](CO)[C@@H](O)[C@H](O)[C@H]1O: 17%
C/C(=C(\CCO)SS/C(CCO)=C(/C)N(C=O)Cc1cnc(C)nc1N)N(C=O)Cc1cnc(C)nc1N: -12%
NC(C(=O)O)C(=O)O: 25%

Sample 2 — Compound: C=CCc1ccc(O)c(-c2ccc(O)c(CC=C)c2)c1; read-out: chloride current; method: whole-cell patch clamp; endpoint: normalised current
Target: Anoctamin-1 (ANO1, Homo sapiens, UniProt Q5XXA6, del476-501)
UniProt Q5XXA6, sequence (whole entry, unmodified, looked up): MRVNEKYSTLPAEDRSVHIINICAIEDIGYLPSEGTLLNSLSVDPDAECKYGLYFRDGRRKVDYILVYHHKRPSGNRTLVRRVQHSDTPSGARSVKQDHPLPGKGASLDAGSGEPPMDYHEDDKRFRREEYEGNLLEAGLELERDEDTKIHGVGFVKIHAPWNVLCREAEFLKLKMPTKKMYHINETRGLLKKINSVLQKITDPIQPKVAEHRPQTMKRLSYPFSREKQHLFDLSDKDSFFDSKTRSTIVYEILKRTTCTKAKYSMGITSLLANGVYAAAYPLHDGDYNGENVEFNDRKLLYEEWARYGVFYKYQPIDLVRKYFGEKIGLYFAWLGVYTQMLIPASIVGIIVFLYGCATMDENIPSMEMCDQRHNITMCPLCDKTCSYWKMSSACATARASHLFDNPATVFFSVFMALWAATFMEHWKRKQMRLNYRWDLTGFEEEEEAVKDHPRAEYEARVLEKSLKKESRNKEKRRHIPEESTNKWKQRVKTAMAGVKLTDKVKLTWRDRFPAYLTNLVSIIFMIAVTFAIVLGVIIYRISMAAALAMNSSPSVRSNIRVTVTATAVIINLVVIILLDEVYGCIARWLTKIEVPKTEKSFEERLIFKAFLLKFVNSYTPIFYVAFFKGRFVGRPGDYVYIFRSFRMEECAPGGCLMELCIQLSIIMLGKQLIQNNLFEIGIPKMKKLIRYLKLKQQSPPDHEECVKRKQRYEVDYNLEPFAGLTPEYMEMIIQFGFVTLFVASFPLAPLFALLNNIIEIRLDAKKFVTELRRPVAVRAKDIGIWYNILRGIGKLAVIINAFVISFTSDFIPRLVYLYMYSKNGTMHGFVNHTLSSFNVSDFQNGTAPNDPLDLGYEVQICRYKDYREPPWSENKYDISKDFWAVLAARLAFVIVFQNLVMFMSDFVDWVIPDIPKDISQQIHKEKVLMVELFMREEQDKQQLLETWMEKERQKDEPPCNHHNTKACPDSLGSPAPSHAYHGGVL
30 µM, 100 mV, 300 nM free Ca2+: 0.131 and 0.138
3 µM, 60 mV, 300 nM free Ca2+, with: honokiol and magnolol 10 µM: 0.149
3 µM, -20 mV, 300 nM free Ca2+, with: honokiol and magnolol 10 µM: -0.0156
100 µM, 100 mV, 300 nM free Ca2+: 0.104 and 0.11
3 µM, 80 mV, 300 nM free Ca2+, with: honokiol and magnolol 10 µM: 0.267
100 µM, 0 mV, 300 nM free Ca2+: -0.0004
10 µM, 40 mV, 300 nM free Ca2+: 0.0588 and 0.056
30 µM, 40 mV, 300 nM free Ca2+: 0.0173 and 0.0182
30 µM, 100 mV, 300 nM free Ca2+, with: honokiol and magnolol 10 µM: 0.132

Sample 3 — read-out: cell-free assay; method: competition with immobilised ligand; concentration: 1 µM; endpoint: remaining binding
SMILES: O=C(NS(=O)(=O)c1ccc(NCC2CCOCC2)c([N+](=O)[O-])c1)c1ccc(N2CCN(Cc3ccc(C(F)(F)F)cc3-c3ccc(Cl)cc3)CC2)cc1Oc1cnc2[nH]ccc2c1
PKMYT1 (Homo sapiens, UniProt Q99640): 90%
SYK (Homo sapiens, UniProt P43405): 99%
CDK5 (Homo sapiens, UniProt Q00535): 81%
PI4KB (Homo sapiens, UniProt Q9UBF8): 79%
ANKK1 (Homo sapiens, UniProt Q8NFD2): 77%
LATS1 (Homo sapiens, UniProt O95835): 100%
PTK2B (Homo sapiens, UniProt Q14289): 100%
STK35 (Homo sapiens, UniProt Q8TDR2): 95%
Tyrosine-protein kinase ABL1, non-phosphorylated (ABL1, Homo sapiens, UniProt P00519, T315I): 82%
PIP5K1A (Homo sapiens, UniProt Q99755): 93%
CSNK2A1 (Homo sapiens, UniProt P68400): 83%
FLT3 (Homo sapiens, UniProt P36888, R834Q): 80%
PIK3CA (Homo sapiens, UniProt P42336, H1047L): 85%
PLK3 (Homo sapiens, UniProt Q9H4B4): 100%
PRKACB (Homo sapiens, UniProt P22694): 91%
DAPK1 (Homo sapiens, UniProt P53355): 100%

Sample 4 — read-out: enzyme activity; mode: inhibitor; concentration: 0.5 µM; relative to: control; endpoint: remaining activity
Target: Cyclin-dependent kinase 6, with cyclin D1 (CDK6, Homo sapiens, UniProt Q00534)
UniProt Q00534, sequence (whole entry, looked up): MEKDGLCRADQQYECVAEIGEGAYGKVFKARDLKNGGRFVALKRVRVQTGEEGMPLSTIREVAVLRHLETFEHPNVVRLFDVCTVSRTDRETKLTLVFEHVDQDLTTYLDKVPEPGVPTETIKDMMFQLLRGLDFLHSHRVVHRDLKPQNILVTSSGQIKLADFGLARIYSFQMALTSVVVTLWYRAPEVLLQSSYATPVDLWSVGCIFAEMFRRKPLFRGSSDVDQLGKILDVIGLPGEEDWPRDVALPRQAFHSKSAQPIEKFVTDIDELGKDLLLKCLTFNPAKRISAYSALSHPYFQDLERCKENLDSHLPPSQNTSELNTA
COc1ccc(COc2ccc(Cc3cnc(N)nc3N)cc2OC)cc1: 101%
CCCNC(=O)Nc1ccc(Oc2ncnc3cc(OC)c(OC)cc23)cc1Cl: 92.9%
CN(C)S(=O)(=O)c1ccc2c(c1)/C(=C/c1cc3c([nH]1)CCCC3)C(=O)N2: 92.5%
Cc1cc(Nc2cc(N3CCN(C)CC3)nc(Sc3ccc(NC(=O)C4CC4)cc3)n2)[nH]n1: 95.2%
Oc1cccc(-c2nc(N3CCOCC3)c3oc4ncccc4c3n2)c1: 95.6%
O=Nc1c(-c2c(O)[nH]c3cc(Br)ccc23)[nH]c2ccccc12: 35.9%
CCCCc1c(-c2ccc(OC)cc2)[nH]c2nccnc12: 54.8%
COc1ccc2c(c1)c(C1=C(c3c[nH]c4ccccc34)C(=O)NC1=O)cn2CCCN(C)C: 64%
O=C1Nc2ccc(Br)cc2/C1=C/c1cc2c([nH]1)CCCC2: 90.4%
COc1cccc(-c2cc(=O)c3ccccc3o2)c1N: 95.5%
Cc1ccc(S(=O)(=O)/C=C/C#N)cc1: 91.4%
c1ccc(-c2n[nH]c3c2oc2ccccc23)cc1: 90.4%

For quick reference, copied from above (sample 4):
COc1cccc(-c2cc(=O)c3ccccc3o2)c1N: 95.5%
COc1ccc2c(c1)c(C1=C(c3c[nH]c4ccccc34)C(=O)NC1=O)cn2CCCN(C)C: 64%
Cc1cc(Nc2cc(N3CCN(C)CC3)nc(Sc3ccc(NC(=O)C4CC4)cc3)n2)[nH]n1: 95.2%
c1ccc(-c2n[nH]c3c2oc2ccccc23)cc1: 90.4%
CN(C)S(=O)(=O)c1ccc2c(c1)/C(=C/c1cc3c([nH]1)CCCC3)C(=O)N2: 92.5%
Cc1ccc(S(=O)(=O)/C=C/C#N)cc1: 91.4%
Oc1cccc(-c2nc(N3CCOCC3)c3oc4ncccc4c3n2)c1: 95.6%
